Measurements of several laboratories.
Each line is one published result; not all experiments were run side by side. Several values in a cell are separate wells, animals, samples, runs or records. ± gives the spread as reported.
USP16 ZnF-UBD domain: Ubiquitin carboxyl-terminal hydrolase 16, ZnF-UBD domain (USP16, Homo sapiens, UniProt Q9Y5T5)
Sequence of UniProt Q9Y5T5 (whole entry, looked up): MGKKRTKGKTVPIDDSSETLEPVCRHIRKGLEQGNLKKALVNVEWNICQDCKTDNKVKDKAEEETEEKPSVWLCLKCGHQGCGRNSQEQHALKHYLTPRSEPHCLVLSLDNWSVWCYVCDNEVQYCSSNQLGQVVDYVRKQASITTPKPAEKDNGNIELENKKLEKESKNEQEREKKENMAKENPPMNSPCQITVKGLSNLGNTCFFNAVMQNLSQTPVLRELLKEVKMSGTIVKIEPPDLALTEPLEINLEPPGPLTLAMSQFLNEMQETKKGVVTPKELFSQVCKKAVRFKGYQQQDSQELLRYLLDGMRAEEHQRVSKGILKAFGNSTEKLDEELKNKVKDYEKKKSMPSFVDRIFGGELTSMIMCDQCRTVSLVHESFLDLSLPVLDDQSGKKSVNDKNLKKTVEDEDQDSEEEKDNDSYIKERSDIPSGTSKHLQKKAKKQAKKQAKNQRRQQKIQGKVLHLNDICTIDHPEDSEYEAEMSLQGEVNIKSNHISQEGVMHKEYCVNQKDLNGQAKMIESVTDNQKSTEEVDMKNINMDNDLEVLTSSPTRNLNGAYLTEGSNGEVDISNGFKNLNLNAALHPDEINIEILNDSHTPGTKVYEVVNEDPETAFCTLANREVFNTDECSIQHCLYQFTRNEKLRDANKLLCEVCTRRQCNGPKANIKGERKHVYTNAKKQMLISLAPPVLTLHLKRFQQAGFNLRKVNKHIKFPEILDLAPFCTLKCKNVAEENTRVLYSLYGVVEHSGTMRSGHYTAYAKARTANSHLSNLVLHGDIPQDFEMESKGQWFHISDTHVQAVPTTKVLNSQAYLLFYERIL
Kir3.1/Kir3.4: Kir3.1/Kir3.4 (Homo sapiens, UniProt P48544+P48549)
Sequence of UniProt P48549 (whole entry, looked up): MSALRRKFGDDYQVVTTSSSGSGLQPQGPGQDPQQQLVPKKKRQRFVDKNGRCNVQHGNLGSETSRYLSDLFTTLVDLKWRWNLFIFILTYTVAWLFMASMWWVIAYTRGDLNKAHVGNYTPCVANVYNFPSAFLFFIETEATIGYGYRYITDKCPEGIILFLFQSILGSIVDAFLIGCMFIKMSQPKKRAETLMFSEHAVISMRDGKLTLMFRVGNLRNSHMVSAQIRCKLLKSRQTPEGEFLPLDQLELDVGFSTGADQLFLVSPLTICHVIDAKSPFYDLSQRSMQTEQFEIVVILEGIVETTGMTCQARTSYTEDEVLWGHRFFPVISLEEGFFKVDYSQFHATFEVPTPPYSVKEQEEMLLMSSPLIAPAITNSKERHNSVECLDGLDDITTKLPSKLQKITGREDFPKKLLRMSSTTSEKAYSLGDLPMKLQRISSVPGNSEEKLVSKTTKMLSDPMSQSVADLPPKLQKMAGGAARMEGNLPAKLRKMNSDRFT
Sequence of UniProt P48544 (whole entry, looked up): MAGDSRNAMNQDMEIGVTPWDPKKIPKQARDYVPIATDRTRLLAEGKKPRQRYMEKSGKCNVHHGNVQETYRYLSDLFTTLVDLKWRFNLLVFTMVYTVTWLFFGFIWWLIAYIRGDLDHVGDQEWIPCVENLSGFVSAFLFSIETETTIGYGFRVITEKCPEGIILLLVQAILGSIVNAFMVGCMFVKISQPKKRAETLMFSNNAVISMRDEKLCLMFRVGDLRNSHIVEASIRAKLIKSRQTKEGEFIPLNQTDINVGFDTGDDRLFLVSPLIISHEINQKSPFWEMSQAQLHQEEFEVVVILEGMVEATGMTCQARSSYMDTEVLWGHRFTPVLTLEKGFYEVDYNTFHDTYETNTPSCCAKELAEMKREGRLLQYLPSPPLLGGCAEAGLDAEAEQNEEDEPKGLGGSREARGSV
DNMT1: DNA (cytosine-5)-methyltransferase 1 (DNMT1, Homo sapiens, UniProt P26358)
Sequence of UniProt P26358 (whole entry, looked up): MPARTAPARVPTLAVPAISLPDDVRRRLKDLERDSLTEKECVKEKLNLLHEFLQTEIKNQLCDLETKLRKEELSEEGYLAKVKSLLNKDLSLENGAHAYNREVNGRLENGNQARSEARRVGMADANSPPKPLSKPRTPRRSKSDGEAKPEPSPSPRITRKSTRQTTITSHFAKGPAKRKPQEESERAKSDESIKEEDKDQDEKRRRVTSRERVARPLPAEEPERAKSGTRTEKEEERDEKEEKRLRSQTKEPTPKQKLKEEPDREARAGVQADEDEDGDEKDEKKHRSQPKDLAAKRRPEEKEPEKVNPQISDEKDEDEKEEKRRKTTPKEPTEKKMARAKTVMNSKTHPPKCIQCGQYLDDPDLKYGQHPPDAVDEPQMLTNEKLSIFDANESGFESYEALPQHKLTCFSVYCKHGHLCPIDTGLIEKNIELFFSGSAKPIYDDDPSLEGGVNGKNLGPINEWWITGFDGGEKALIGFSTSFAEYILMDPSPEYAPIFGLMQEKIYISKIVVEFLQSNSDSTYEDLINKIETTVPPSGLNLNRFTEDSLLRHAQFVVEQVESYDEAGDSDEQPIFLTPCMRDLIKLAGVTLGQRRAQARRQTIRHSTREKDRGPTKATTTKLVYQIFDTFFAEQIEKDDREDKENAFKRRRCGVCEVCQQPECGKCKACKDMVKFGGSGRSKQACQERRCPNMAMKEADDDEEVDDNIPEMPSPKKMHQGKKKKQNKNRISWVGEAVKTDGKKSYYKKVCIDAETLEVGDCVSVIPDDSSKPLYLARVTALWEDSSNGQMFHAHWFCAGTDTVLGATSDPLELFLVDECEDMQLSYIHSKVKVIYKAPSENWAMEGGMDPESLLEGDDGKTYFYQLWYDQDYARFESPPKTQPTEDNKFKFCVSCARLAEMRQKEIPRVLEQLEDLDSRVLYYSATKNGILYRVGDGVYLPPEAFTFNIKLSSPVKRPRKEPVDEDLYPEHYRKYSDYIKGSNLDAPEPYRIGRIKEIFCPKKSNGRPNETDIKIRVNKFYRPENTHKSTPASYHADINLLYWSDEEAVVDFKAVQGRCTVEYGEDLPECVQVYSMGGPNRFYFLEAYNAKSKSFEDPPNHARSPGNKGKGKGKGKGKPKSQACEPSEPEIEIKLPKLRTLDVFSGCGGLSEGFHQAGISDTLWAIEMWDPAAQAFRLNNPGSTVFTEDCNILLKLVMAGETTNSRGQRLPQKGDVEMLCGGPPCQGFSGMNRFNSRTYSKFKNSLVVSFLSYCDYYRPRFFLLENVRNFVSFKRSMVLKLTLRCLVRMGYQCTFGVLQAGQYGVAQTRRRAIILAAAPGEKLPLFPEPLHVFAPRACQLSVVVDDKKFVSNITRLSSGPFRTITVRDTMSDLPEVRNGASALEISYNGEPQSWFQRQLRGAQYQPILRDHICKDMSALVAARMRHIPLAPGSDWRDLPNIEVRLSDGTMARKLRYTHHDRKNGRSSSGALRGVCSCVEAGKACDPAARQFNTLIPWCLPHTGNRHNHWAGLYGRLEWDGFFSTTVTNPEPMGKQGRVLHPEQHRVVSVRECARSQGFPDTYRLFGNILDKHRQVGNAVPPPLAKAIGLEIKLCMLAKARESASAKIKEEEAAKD
Sequence of UniProt Q6NT16 (whole entry, unmodified, looked up): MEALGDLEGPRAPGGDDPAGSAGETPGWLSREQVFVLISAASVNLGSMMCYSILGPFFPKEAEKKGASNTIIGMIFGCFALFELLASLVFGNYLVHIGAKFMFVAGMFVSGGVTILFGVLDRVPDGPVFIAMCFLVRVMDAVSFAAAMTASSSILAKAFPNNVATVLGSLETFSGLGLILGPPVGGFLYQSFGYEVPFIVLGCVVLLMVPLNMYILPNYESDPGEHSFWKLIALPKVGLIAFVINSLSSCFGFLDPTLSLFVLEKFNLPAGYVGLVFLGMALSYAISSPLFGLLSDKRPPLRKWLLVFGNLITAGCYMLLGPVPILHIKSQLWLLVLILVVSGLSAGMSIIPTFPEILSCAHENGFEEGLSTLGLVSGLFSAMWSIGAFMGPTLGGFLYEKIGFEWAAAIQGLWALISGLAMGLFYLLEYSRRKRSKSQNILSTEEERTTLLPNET
Sequence of UniProt Q9UM07 (whole entry, looked up): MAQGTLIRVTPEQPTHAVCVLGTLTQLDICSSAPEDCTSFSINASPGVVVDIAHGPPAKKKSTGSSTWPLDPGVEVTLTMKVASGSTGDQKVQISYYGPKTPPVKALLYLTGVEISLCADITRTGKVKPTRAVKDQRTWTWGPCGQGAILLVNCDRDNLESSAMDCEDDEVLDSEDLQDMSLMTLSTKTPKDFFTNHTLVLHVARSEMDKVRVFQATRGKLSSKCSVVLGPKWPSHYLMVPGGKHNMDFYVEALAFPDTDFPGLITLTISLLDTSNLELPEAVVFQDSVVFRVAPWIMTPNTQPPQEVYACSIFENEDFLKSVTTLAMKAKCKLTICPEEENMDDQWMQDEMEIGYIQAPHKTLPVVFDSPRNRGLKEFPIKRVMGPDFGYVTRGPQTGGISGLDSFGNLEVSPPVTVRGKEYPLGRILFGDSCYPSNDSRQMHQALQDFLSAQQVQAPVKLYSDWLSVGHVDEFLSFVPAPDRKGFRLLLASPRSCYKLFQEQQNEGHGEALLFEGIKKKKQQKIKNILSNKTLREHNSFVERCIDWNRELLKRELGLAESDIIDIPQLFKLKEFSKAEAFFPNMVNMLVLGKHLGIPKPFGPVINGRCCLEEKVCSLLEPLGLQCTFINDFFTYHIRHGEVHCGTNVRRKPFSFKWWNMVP
Sequence of UniProt P51589 (whole entry, unmodified, looked up): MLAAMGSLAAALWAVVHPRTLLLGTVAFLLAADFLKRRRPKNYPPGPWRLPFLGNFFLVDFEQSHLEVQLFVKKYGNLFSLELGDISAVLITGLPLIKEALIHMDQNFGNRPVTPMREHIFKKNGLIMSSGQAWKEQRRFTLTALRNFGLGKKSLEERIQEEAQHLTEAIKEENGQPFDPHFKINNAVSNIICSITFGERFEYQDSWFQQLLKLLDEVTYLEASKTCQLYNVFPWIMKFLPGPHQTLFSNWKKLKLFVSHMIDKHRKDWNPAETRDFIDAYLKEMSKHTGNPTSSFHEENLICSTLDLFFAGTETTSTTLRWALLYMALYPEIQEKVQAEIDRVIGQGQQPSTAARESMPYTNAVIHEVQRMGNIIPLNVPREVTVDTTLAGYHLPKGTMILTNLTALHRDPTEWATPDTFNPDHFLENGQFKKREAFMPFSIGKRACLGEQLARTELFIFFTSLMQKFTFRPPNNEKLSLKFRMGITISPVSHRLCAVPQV

O=C(O)CCc1cn2cccnc2n1 — Kd (USP16 ZnF-UBD domain): > 1000 µM
CCc1cc(NC(=O)COc2ccc(Cl)cc2Cl)n(C2CCOCC2)n1 — EC50 (Kir3.1/Kir3.4; activator, thallium flux; HEK293): 0.33 µM
CCc1c(C#N)c(SC(C(N)=O)c2ccccc2)nc(N2CCC(NC(C)=O)CC2)c1C#N (stereo not shown) — DC50 (DNMT1; degrader, Western blot; HCT-116; 24 h, range 0.01 to 1 µM): > 1 µM
CCn1c(-c2nc3cc(C(=O)N4CCC[C@@H](N)C4)cc(OC)c3n2C)cc2cccnc21 — IC50 (PADI4 (Homo sapiens, UniProt Q9UM07); binding, fluorescence polarisation; together with: tracer displacement, 0.2 mM Ca2+): 0.211 µM
CCc1c(C#N)c(SC(C(N)=O)c2ccccc2)nc(N2CCN(C)CC2)c1C#N (stereo not shown) — DC50 (DNMT1; degrader, Western blot; HCT-116; 24 h, range 0.01 to 1 µM): > 1 µM
COc1cc2c(cc1OC)[C@H]1C[C@@H](O)[C@H](CC(C)C)CN1CC2 — Kd (MFS-type transporter SLC18B1 (SLC18B1, Homo sapiens, UniProt Q6NT16, W384A); binder; radiolabeled protein variants): 385 µM
CCC[C@H](CC)Oc1ccc(C(C)(C)C)cc1NC(=O)c1nnn(-c2cc(OC)c(OCCCCCCOCCOCC(=O)N[C@H](C(=O)N3C[C@H](O)C[C@H]3C(=O)NCc3ccc(-c4scnc4C)cc3)C(C)(C)C)cc2OC)c1C — DC50 (NR1I2 (Homo sapiens, UniProt O75469); degrader, western blot; SNU-C4 3xFLAG knock-in cells; 24 h): ~0.05 µM
CCc1c(C#N)c(NCC(N)=O)nc(SC(C(N)=O)c2ccccc2)c1C#N (stereo not shown) — DC50 (DNMT1; degrader, Western blot; HCT-116; 24 h, range 0.01 to 1 µM): > 1 µM
O=C(O)Cc1nc2ccccc2[nH]1 — Kd (USP16 ZnF-UBD domain): > 1000 µM
O=C(O)CCCC[C@@H]1SC[C@@H]2NC(=O)N[C@@H]21 — log2 fold change (binding, MIDAS equilibrium dialysis LC-MS; A2AR-BRIL thermostabilized; concentration not given; reference: no-protein control): -0.618
NCCCNCCCCNCCCN — Kd (MFS-type transporter SLC18B1 (SLC18B1, Homo sapiens, UniProt Q6NT16, E83A); binder): 145 µM
CCc1c(C#N)c(SC(C(N)=O)c2ccccc2)nc(N2CCC(NC(=O)C34CC5CC(CC(C5)C3)C4)CC2)c1C#N (stereo not shown) — DC50 (DNMT1; degrader, Western blot; HCT-116; 24 h, range 0.01 to 1 µM): < 0.05 µM
COc1cc(Nc2ncc3c(n2)-c2ccc(Cl)cc2C(c2c(F)cccc2OC)=NC3)ccc1C(=O)NCCOCCOCCNC(=O)COc1cccc2c1C(=O)N(C1CCC(=O)NC1=O)C2=O (stereo not shown) — EC50 (Adenylate kinase 2, mitochondrial (Homo sapiens, UniProt P54819); binding, kinobead competition; MV4-11 cell lysate): > 30 µM
CSc1nc(C)c(CCC(=O)O)c(=O)[nH]1 — Kd (USP16 ZnF-UBD domain): 118 µM
OC[C@H]1OC(O)[C@H](O)[C@@H](O)[C@@H]1O (stereo partly shown) — Ki (Hexokinase-3 (HK3, Homo sapiens, UniProt P52790, D264A/R265A); substrate inhibition; mutant D264A/R265A, partial substrate inhibition model, together with: ATP 20 mM): 5100 ± 500 µM
O=c1n(CCCN2CCN(c3cccc(Cl)c3)CC2)nc2ccccn12 — Ki (HCRTR2 (Homo sapiens, UniProt O43614)): > 10 µM
O=C(O)CCn1ccccc1=O — Kd (USP16 ZnF-UBD domain): > 1000 µM
CCCOc1ccc(OC)c(F)c1C(=O)c1ccc(C(=O)N[C@@H]2CNC[C@H]2NC(=O)c2ccc3[nH]ncc3c2)cc1 — remaining activity (CK1 (yeast); kinase activity; 10 µM): 57%
CCc1cc(NC(=O)COc2cccc(Cl)c2Cl)n(C2CCC(F)(F)CC2)n1 — EC50 (Kir3.1/Kir3.4; activator, thallium flux; HEK293): 0.339 µM
CCc1c(C#N)c(SC(C(N)=O)c2ccccc2)nc(N(C)CC(=O)NC)c1C#N (stereo not shown) — DC50 (DNMT1; degrader, Western blot; HCT-116; 24 h, range 0.01 to 1 µM): 0.04 µM and < 0.05 µM
COc1cc2ccc(=O)oc2cc1O — Ki (uncharacterized protein (Solanum tuberosum, UniProt M0ZZL3); substrate inhibition; together with: 100 µM UDP-glucose): 294 ± 91 µM
CC(C)CC(O)C(=O)O (stereo not shown) — log2 fold change (binding, MIDAS equilibrium dialysis LC-MS; A2AR-BRIL thermostabilized; concentration not given; reference: no-protein control): -0.556
O=C(O)CCC(=O)c1ccc(S(=O)(=O)N2CCCC2)cc1 — Kd (USP16 ZnF-UBD domain): 139 µM
O=C(COc1cccc(Cl)c1Cl)Nc1cc(C2CCC2)nn1C1CCC(F)(F)CC1 — EC50 (Kir3.1/Kir3.4; activator, thallium flux; HEK293): 10 µM
O=C(O)CNc1ncnc2ccccc12 — Kd (USP16 ZnF-UBD domain): 603 µM
O=C(COc1ccc(C(F)(F)F)cc1C(F)(F)F)Nc1cc(C2CC2)nn1C1CCC(F)(F)CC1 — EC50 (Kir3.1/Kir3.4; activator, thallium flux; HEK293): 6.4 µM
N#Cc1ccc(COc2cccc(C3CCN(Cc4nc5ccc(C(=O)O)cc5n4C[C@@H]4CCO4)CC3)n2)c(F)c1 — Ki (sodium channel): 6.8 µM
O=C(O)CNC(=O)c1ccc(S(=O)(=O)N2CCC(n3c(=O)oc4ccccc43)CC2)cc1 — Kd (USP16 ZnF-UBD domain): 536 µM
CCc1cc(NC(=O)COc2cc(Cl)ccc2Cl)n(C2CCC(F)(F)CC2)n1 — EC50 (Kir3.1/Kir3.4; activator, thallium flux; HEK293): 0.207 µM
Cc1sc2ncn(CC(=O)O)c(=O)c2c1C — Kd (USP16 ZnF-UBD domain): 579 µM
CCCCC/C=C\C/C=C\CCCCCCCC(=O)O — Ki (Cytochrome P450 2J2 (CYP2J2, Homo sapiens, UniProt P51589, L2A); enzyme activity, competitive inhibitor; nanodiscs with CPR, together with: arachidonic acid): 46.4 ± 9.93 µM

For quick reference, copied from above:
CCc1c(C#N)c(SC(C(N)=O)c2ccccc2)nc(N2CCC(NC(=O)C34CC5CC(CC(C5)C3)C4)CC2)c1C#N (stereo not shown) — DC50 (DNMT1; degrader, Western blot; HCT-116; 24 h, range 0.01 to 1 µM): < 0.05 µM
CCc1c(C#N)c(SC(C(N)=O)c2ccccc2)nc(N2CCC(NC(C)=O)CC2)c1C#N (stereo not shown) — DC50 (DNMT1; degrader, Western blot; HCT-116; 24 h, range 0.01 to 1 µM): > 1 µM
CCc1cc(NC(=O)COc2cccc(Cl)c2Cl)n(C2CCC(F)(F)CC2)n1 — EC50 (Kir3.1/Kir3.4; activator, thallium flux; HEK293): 0.339 µM
O=C(COc1cccc(Cl)c1Cl)Nc1cc(C2CCC2)nn1C1CCC(F)(F)CC1 — EC50 (Kir3.1/Kir3.4; activator, thallium flux; HEK293): 10 µM
